# Results of several laboratories.
# Compare with care: the assays were run in different laboratories. Numbers after ± are the reported error.
Compound,cell line,assay,conditions,scale,measurement,result
COc1cc2c(C=C3C(=O)Nc4ccccc43)c[nH]c2cc1C,leukaemia subpanel of NCI-60,,48 h,,TGI,2.88 µM
Cc1cc(-c2ccccc2)c2ccc3c(-c4ccccc4)cc(C)nc3c2n1.[Cl-].[Cl-].[Ru+2].c1ccc(-c2ccccn2)nc1.c1ccc(-c2ccccn2)nc1,B16-F10,WST-1,,relative to: dark IC50 over light IC50,phototoxicity index,> 900
COc1cc(CNC(=O)C[C@H](C)CCC=C(C)C)ccc1OCc1cn(-c2cccc([N+](=O)[O-])c2)nn1,OVCAR-8 ovarian cancer cells,SRB,"10 µM, 48 h",,growth percent,23.7%
Cc1cc(/N=N/c2ccc(/N=N/c3ccc(O)c(C(=O)O)c3)cc2)c(N)cc1N,primary mouse articular chondrocytes,"real-time PCR, measured: Phlpp1",25 µM,,mRNA level,decreased
Clc1ccc(C=[N+]2N=C(Nc3ccccc3)[S][Pt-]2([Cl])[Cl])s1,HEL human lung fibroblasts,"altered cell morphology, microscopy",confluent cultures,,cytotoxic concentration,60 µM
[Cl][Pd-2]1([Cl])[N+](=Cc2ccc[nH]2)Cc2cccc[n+]21,MCF-12A,MTT,"100 µg/mL, 24 h",,viability reduction,> 80%
Nc1c(S(=O)(=O)O)cc(Nc2cccc(S(N)(=O)=O)c2)c2c1C(=O)c1ccccc1C2=O,primary mouse articular chondrocytes,"real-time PCR, measured: Col2a1","25 µM, micromass culture",,mRNA level,increased
CC1=CC(OC(=O)c2ccccc2)C2(COC(=O)c3ccccc3)CCC(=C(C)C)C2C(O)CC2(C)OC2CC1 (stereo not shown),"HepG2, palmitic acid-induced insulin resistance",,"15 µM, 24 h",,glucose consumption,5.56 ± 0.69 mM
CNC(=O)c1ccccc1Oc1nc(Nc2cc(OC)c(OC)c(OC)c2)ncc1Br,C2C12 myotubes,measured: 2-deoxyglucose,10 µM,,inhibition of basal glucose uptake,> 50%
CC/C=C\C/C=C\C/C=C\C/C=C\C/C=C\C/C=C\CCC(=O)Nc1ccn(C2OC(CO)C(O)C2(F)F)c(=O)n1 (stereo not shown),SW-620,NCI60 screen,,,TGI,23.2 µM
Nc1ncnc2c1c(-c1ccc(Cl)cc1)cn2[C@H]1C[C@H](O)[C@@H](CO)O1,HEK,cytotoxicity,,,EC50,> 200 µM
C=CC(=O)Nc1cc(Nc2nccc(-c3c(-c4cccc(F)c4)n(C)c4ccccc34)n2)c(OC)cc1N(C)CCN(C)C,H1975,scratch,"concentration not given, 24 h",,wound closure,decreased
O=Cc1c(O)ccc2ccccc12,HUVEC,"RNA sequencing, measured: RAB39B","75 µM, 24 h",relative to: DMSO,log2 fold change,3.31
COc1ccc(CC(C)=C(c2ccc(Cl)cc2)c2ccc(OCCN3CCCCCC3)cc2)cc1,NCI-60 tumour cell lines,,"10 µM, mean over cell lines",,growth inhibition,22.4%
Cc1c(C(=O)NNC(=S)Nc2ccc(Cl)cc2)nnn1Cc1nc2ccccc2[nH]1,HepG2,annexin V/PI,"concentration not given, 24 h",,apoptotic cells,37.4%
COc1cc(CNC(=O)C[C@H](C)CCC=C(C)C)ccc1OCc1cn(-c2ccc(C#N)cc2)nn1,Malme-3M melanoma cells,SRB,"10 µM, 48 h",,growth percent,75.4%
CSC(=S)N/N=C(\C)c1ccc(S(=O)(=O)N2CCC(C)CC2)cc1,HepG2,flow cytometry,"3.31 µM, 72 h",,cells in %G2/M,34.9%
COc1ccc(CN(C(=O)c2sc3ccccc3c2Cl)C2CCC(N)CC2)cc1-c1ccc(C#N)cc1 (stereo not shown),C3H10T1/2,"Hh signalling reporter, agonist",,relative to: Hh protein,Amax,~35%
CC(C)(C)C(=O)NNC(=O)/C=C\n1cnc(-c2cc(C(F)(F)F)cc(C(F)(F)F)c2)n1,hippocampal neurons,,"10 nM, with: glutamate and TNFα",relative to: control,mitochondrial speed and length,inhibited
CCN(CC)CC(=O)Nc1cccc(-n2cc(-c3ccc4ccc(-c5cn(-c6cccc(NC(=O)CN(CC)CC)c6)nn5)cc4c3)nn2)c1,RCC4 with VHL,,"5 and 10 × IC50, 4 h, normoxia and hypoxia",,colony formation,decreased
COc1cc(CNC(=O)C[C@H](C)CCC=C(C)C)ccc1OCc1cn(-c2ccccc2)nn1,OVCAR-8 ovarian cancer cells,SRB,"10 µM, 48 h",,growth percent,108%
C(=C/c1ccccc1)/c1ccccc1,THP-1,"cell proliferation, CellTiter-Glo","24 h, lowest dose with significant inhibition",relative to: vehicle,lowest effective concentration,2 µM
O=C(/C=C/c1cccc(S(=O)(=O)NCc2ccccc2)c1)NO,MOPC-315,cell growth,24 h,relative to: belinostat,relative potency,1.09
COc1cc(CNC(=O)C[C@H](C)CCC=C(C)C)ccc1OCc1cn(-c2ccccc2Cl)nn1,SF-295 CNS cancer cells,SRB,"10 µM, 48 h",,growth percent,56.4%
C[C@@H](O)[C@H](NC(=O)[C@@H]1CSSC[C@H](NC(=O)[C@@H](Cc2ccccc2)NC(=O)CCNC(=S)Nc2ccc(C[C@H]3CN(CC(=O)O)CCN(CC(=O)O)CCN3CC(=O)O)cc2)C(=O)N[C@@H](Cc2ccc(O)cc2)C(=O)N[C@H](Cc2c[nH]c3ccccc23)C(=O)N[C@@H](CCCCN)C(=O)N[C@@H]([C@@H](C)O)C(=O)N1)C(=O)O [copper-64 labelled],HCT116-SSTR2,,"15 min to 4 h, 64Cu-labelled",,internalisation increase,49%
COc1cc(CNC(=O)C[C@H](C)CCC=C(C)C)ccc1OCc1cn(-c2cccc(Cl)c2)nn1,Malme-3M melanoma cells,SRB,"10 µM, 48 h",,growth percent,87.2%
CC(C)=CCc1c(O)cc(CO)cc1O,"HepG2, palmitic acid-induced insulin resistance",,"12.5 µM, 24 h",,glucose consumption,4.79 ± 0.65 mM
COc1cc(CNC(=O)C[C@H](C)CCC=C(C)C)ccc1OCc1cn(-c2ccccc2[N+](=O)[O-])nn1,OVCAR-8 ovarian cancer cells,SRB,"10 µM, 48 h",,growth percent,48.6%
CCC(=C(c1ccc(Cl)cc1)c1ccc(OCCCN(C)C)cc1)c1ccc(OC)cc1,NCI-60 cell lines,NCI five-dose screen,mean over 60 lines,,GI50,3.67 µM
COc1cc(CNC(=O)C[C@H](C)CCC=C(C)C)ccc1O,Malme-3M melanoma cells,SRB,"10 µM, 48 h",,growth percent,90.3%
O=[N+]([O-])c1ccc(/C=N/NC(=S)Nc2ccccc2)s1,HEL human lung fibroblasts,"altered cell morphology, microscopy",confluent cultures,,cytotoxic concentration,≥ 20 µM

# A few entries again:
Compound,cell line,assay,conditions,scale,measurement,result
O=Cc1c(O)ccc2ccccc12,HUVEC,"RNA sequencing, measured: RAB39B","75 µM, 24 h",relative to: DMSO,log2 fold change,3.31
CC1=CC(OC(=O)c2ccccc2)C2(COC(=O)c3ccccc3)CCC(=C(C)C)C2C(O)CC2(C)OC2CC1 (stereo not shown),"HepG2, palmitic acid-induced insulin resistance",,"15 µM, 24 h",,glucose consumption,5.56 ± 0.69 mM
Nc1ncnc2c1c(-c1ccc(Cl)cc1)cn2[C@H]1C[C@H](O)[C@@H](CO)O1,HEK,cytotoxicity,,,EC50,> 200 µM
COc1cc(CNC(=O)C[C@H](C)CCC=C(C)C)ccc1OCc1cn(-c2ccc(C#N)cc2)nn1,Malme-3M melanoma cells,SRB,"10 µM, 48 h",,growth percent,75.4%
CC/C=C\C/C=C\C/C=C\C/C=C\C/C=C\C/C=C\CCC(=O)Nc1ccn(C2OC(CO)C(O)C2(F)F)c(=O)n1 (stereo not shown),SW-620,NCI60 screen,,,TGI,23.2 µM
